Results gathered from unrelated publications.
Every numbered part comes from another study and shows a few of its results, in no order.

Set 1 — method: protein-binding microarray; form: double-stranded DNA, one strand shown; sample: in vitro; concentration: 940 nM top; setting: 60-bp whole probe; together with: salmon DNA 0.4 mg/ml; reference: random background probes; reading: higher = stronger binding; shared flanks, not repeated: GCCTAGCAC … GTCTTGATTCGCTTGACGCTGCTG
Target: Interferon regulatory factor 5, full length, phosphomimetic (IRF5, Homo sapiens, UniProt Q13568-2, residues 1-514, S451D/S453D/S456D/S462D)
| Strand | fitted relative affinity [z-score] |
| --- | --- |
| TCATCTTTGCTTCACCCACTGTGCTAG | 1.04 |
| TACGATTTCAGACTGGAGACGTGCTAG | -0.159 |
| TATAGAGTAGTTTTTCAACCAGTGCTA | -0.202 |
| TCAACTTTCTGAATGCCACTGTGCTAG | 0.696 |
| GACGATCTCAGTTTCGAGAAGTGCTAG | 3.62 |
| GACGGTATCCTTATCATGACGTGCTAG | 0.247 |
| TTAGGTATCGACAATGGGTTAGTGCTA | 4.84 |
| TTAGATATCGGGTATCGATAAGTGCTA | 2.43 |
| CCAGTGCTTGCTCCCCTGCAGTGCTAG | -0.482 |
| GACGGTTTCGCCTTTCGGGACGTGCTA | 6.84 |
| GACGATTTCAGTTTCGAGACGTGCTAG | 5.12 |
| TTAGACTCCAGTTTCGATTAGTGCTAG | 8.59 |
| GATGGTATCGGTTTCGGGACGTGCTAG | 10.3 |
| GACGGACTGAACACTGGGGACGTGCTA | -0.421 |
| GACGATATCAGTTTCTAGACGTGCTAG | 1.22 |
| CTGGACCCACTTCCAAATGGGTGCTAG | -0.144 |
| TTAGGTAGCCTACTGCTTTAGTGCTAG | -0.34 |
| GTAGGACTGGGGTATCGGTTAGTGCTA | 2.22 |

Set 2 — method: protein binding microarray; form: double-stranded DNA, one strand shown; sample: in vitro; concentration: not given; reference: not given; reading: higher = stronger binding
Target: Histone acetyltransferase KAT6A, both winged helices, GST fusion (KAT6A, Homo sapiens, UniProt Q92794, residues 1-181)
Setting: 8-mer, flanks averaged, mean of 2 arrays, mostly near background
Target sequence (chain): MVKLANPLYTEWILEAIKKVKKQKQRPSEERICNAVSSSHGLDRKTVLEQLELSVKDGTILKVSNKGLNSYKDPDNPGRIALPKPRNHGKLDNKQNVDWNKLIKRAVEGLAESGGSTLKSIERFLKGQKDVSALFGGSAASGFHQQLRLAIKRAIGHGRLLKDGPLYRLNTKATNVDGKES
| Strand | E-score |
| --- | --- |
| CCTAGTAC | -0.0553 |
| AATAGGAA | -0.145 |
| ACTATGCC | 0.0424 |
| GTCTGTCA | -0.0464 |
| GCAAACTA | -0.139 |
| ATATTGAT | -0.117 |
| CCCGCGCA | 0.308 |
| CAATTGTC | -0.0605 |
| GACATGCC | 0.00745 |
| AACTAGTC | -0.171 |
| GAAGGTAA | -0.115 |
| ATGGCTGG | -0.264 |
| ACCCGGCG | 0.283 |
| ACGCAGGG | -0.0206 |
| ATCGTCCC | 0.00646 |
| CTTGGCGC | 0.168 |

Set 3 — method: universal PBM; form: double-stranded DNA, one strand shown; sample: in vitro; concentration: 600 nM; reading: higher = stronger binding
Target: Sal-like protein 4, full length isoform A (SALL4, Homo sapiens, UniProt Q9UJQ4, residues 1-1053)
UniProt Q9UJQ4, sequence (whole entry, looked up): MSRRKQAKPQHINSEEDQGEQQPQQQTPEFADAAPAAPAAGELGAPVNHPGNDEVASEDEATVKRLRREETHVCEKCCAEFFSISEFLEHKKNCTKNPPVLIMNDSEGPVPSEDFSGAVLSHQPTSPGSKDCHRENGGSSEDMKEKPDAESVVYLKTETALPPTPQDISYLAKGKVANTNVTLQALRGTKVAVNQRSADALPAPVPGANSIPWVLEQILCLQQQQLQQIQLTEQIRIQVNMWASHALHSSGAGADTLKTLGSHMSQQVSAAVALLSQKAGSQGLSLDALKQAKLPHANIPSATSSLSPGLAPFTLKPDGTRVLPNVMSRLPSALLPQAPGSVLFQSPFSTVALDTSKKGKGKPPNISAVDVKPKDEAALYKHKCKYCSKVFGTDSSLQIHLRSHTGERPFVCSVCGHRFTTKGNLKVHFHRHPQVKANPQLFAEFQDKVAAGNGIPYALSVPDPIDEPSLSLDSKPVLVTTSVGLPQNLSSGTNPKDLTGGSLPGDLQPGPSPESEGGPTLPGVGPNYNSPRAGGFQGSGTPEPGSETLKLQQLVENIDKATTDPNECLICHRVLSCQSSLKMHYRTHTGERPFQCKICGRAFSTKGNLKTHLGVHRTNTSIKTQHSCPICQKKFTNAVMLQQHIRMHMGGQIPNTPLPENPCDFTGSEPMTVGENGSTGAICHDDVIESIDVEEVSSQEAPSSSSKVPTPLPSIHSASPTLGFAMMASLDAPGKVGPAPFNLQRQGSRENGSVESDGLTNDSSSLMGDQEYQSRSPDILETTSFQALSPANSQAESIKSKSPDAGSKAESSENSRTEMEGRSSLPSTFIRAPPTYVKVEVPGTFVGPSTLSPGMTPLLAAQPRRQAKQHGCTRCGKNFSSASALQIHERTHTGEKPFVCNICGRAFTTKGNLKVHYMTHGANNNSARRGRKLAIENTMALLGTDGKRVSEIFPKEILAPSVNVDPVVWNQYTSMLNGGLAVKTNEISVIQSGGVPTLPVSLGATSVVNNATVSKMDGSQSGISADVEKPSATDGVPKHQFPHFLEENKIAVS
Setting: 8-mer, flanks averaged, mean of replicates
| Strand | E-score |
| --- | --- |
| CAGTCGGA | -0.128 |
| CAAGCTCG | -0.218 |
| AATTCGGG | 0.00916 |
| GTAAGTAC | 0.0676 |
| GACTGAAC | -0.126 |
| ACAGAAAA | 0.141 |
| GACTCTTA | 0.154 |
| CCTCCCAG | -0.323 |
| ACGATTCC | 0.0236 |
| ATCACCGC | -0.0716 |
| GACCTCCA | -0.206 |
| CTAGCGTA | -0.166 |
| ATCACCCG | -0.145 |
| CACTTGTC | -0.0273 |
| ATTCTAGA | 0.192 |
| ATAGACAA | 0.219 |

Set 4 — method: RNA Bind-n-Seq; form: RNA; sample: in vitro; concentration: 365 nM; reference: no-protein control; reading: higher = stronger binding
Target: RNA binding protein fox-1 homolog 2, RRM domain, GST-SBP tag (RBFOX2, Homo sapiens, UniProt O43251-10, residues 100-194)
Setting: natural RNA segment, single round, ends assumed
Target sequence (chain): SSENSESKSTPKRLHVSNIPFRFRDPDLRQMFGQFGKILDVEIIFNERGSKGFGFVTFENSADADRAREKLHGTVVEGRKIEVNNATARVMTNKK
| Strand | RBNS enrichment (R) |
| --- | --- |
| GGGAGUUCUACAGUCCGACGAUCGUUGACUUACUUAUAGCUAGAUGUCUAUGUGAGAAAGUAUAAUAUAUAUAUAUACACAUAUAUAUGACAUGUAAGAGUCACUUUUAUUUAUCUGUCUUUGUUCACUUAUGUGGAAUUCUCGGGUGCCAA | 0.759 |
| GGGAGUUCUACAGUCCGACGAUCGGGCUCUGAGCUGCACUGGCCCCGGUGCUGGCAUCUGGUGGAGCGGACCCACUCCCCUCACAUUCCACAGGCCCAUGGACUCACUUUUGUAACAAACUCCUACCAACACUUGGAAUUCUCGGGUGCCAA | 0.413 |
| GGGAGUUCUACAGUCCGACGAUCGGUUGCCCCGGGACCGUGCUCAGCUGCUCUGCAUGCCCUGUCCUACUGACAGGUACCUUAGUUCUGUGUUCAUGUGGCCCUGACCCUUCCUUCAACCACACCUGGUCUCUUGGAAUUCUCGGGUGCCAA | 1.18 |
| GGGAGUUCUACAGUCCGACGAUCUGAAGAGUGCAAUGGCAAAACAAGAGCAAAAAGCACUUCCUCCCAUGACCUUACAGUAACCAUACUGAUUGAAUCCCCAGGGACAUUCCAUCAUUGCAAUAGCUCAGAUUUGGAAUUCUCGGGUGCCAA | 0.319 |
| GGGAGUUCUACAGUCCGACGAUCCCUGGCGAGGGUUAUGAACCCAGUGUAAGAGACCACCCACCCAGAGCCUCAGCACUGUCUGACUUUGGGAACCAGGGAUCCCACAGAAAUGUUUUGGAGAGCGGGAGGUUUGGAAUUCUCGGGUGCCAA | 0.309 |
| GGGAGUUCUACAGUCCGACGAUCUAAAUUUCUAAUGUGUUCUAUGGGUUUCAAUUCUGAAAAAAGAAAAUGAAUAAAGAUUUUAAUAAAUAUUGAUAUCUGAUCUUUUCCUCUUCUUUCCCCCUUCAGGAUAUUGGAAUUCUCGGGUGCCAA | 0.665 |
| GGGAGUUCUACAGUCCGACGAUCCUGUGGUUUUGACUUCCUUAUCUCUUGGGAGAAGCUUCUGUUUUAAGGAAUUUCUCUUCCUUCUUCUCCUGCCUCUAGCCUCUCCUGGAAAGGCCUGGAUAUGGUUUCUAUGGAAUUCUCGGGUGCCAA | 0.389 |
| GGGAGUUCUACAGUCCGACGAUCGGAUGAGAAACAGGCAUCUCCCAGGCUCCAAGCCUAUUUGGAGGUGACACGGUUGAGUGCUUCUGGGCCGGAAUCCUUAUGGGAAAUCACGUCAAUAAAUUUUAAACGCUUGGAAUUCUCGGGUGCCAA | 0.318 |
| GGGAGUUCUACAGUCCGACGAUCUUGGUAGUACGUGGUACAGUGGCUUUUCUCUGUGGUCAUGUCUUAGGGGCAAAGGCGUGUGGAUGGUGCCAAUGAAACCCUUUACCUAUUUAAUAAAAACGGAUACAUUUUGGAAUUCUCGGGUGCCAA | 0.509 |
| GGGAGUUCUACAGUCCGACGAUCGUGGGUGGUGAUCCUUGUCAGGAUGUACAGUCCUUGCUCCCACCCCAUCCGGGAUGGCCGCCUGUCCCUGACUAUUGAGUCCUGUUGUUGUAAGCCAGGCAUGGAGGGCUUGGAAUUCUCGGGUGCCAA | 1.23 |
| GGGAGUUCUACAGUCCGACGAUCCAGGUCUGGGUAUUGCUCCUGCCCAGACCCUGACAUCCCUUUCCACUGUGUGUGUGACCAUGCUGGGGGAGGGGGACUCUGCUUGGAAUUAAAAGGUUGCAUUGGGUCCCUGGAAUUCUCGGGUGCCAA | 0.542 |
| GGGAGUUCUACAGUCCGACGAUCUUAUUAUUUAAUCUGCACUGAUUUUCCUGUCUUUGGUGGGUACAGUGUGAUAGGACCACUGUCCUGGCAGAGCAGGACUAAAGGAAUGUAGACCCCAUCUCAGUGUCUUCUGGAAUUCUCGGGUGCCAA | 0.579 |
